Measurements pooled from the literature.
Numbers after ± are the reported error.

SMILES	system	conditions	tissue uptake
CCCC[C@H](NC(=O)COCCOCCNC(=O)CN1CCN(CC(=O)O)CCN(CC(=O)O)CC1)C(=O)N[C@H]1CC(=O)NCCCC[C@@H](C(N)=O)NC(=O)[C@H](Cc2c[nH]c3ccccc23)NC(=O)[C@H](CCCNC(=N)N)NC(=O)[C@@H](Cc2ccccc2)NC(=O)[C@H](Cc2c[nH]cn2)NC1=O [copper-64 labelled]	C57 mice, pancreas	intravenous, 0.37 MBq, 2 h	0.21 ± 0.13 %ID/g
CC(C)C[C@H](NC(=O)[C@@H](CCCCNC(=O)CCCCCNC(=O)CN1CCN(CC(=O)O)CCN(CC(=O)O)CCN(CC(=O)O)CC1)NC(=O)[C@H](Cc1ccc(O)cc1)NC(=O)[C@H](CO)NC(=O)[C@H](Cc1c[nH]c2ccccc12)NC(=O)[C@H](Cc1cnc[nH]1)NC(=O)[C@@H]1CCC(=O)N1)C(=O)N[C@@H](CCCNC(=N)N)C(=O)N1CCC[C@H]1C(=O)NCC(N)=O [indium-111 labelled]	female athymic nude mouse, pancreas	intravenous, 0.037 MBq, 2 h	0.15 ± 0.02 %ID/g
CCCC[C@H](NC(=O)CNC(=O)CNC(=O)CN1CCN(CC(=O)O)CCN(CC(=O)O)CCN(CC(=O)O)CC1)C(=O)N[C@H]1CC(=O)NCCCC[C@@H](C(N)=O)NC(=O)[C@H](Cc2c[nH]c3ccccc23)NC(=O)[C@H](CCCNC(=N)N)NC(=O)[C@@H](Cc2ccccc2)NC(=O)[C@H](Cc2c[nH]cn2)NC1=O [lutetium-177 labelled]	C57 mouse, female, bone	intravenous, 0.037 MBq, 4 h	0.64 ± 0.33 %ID/g
N=C(N)NCCC[C@@H]1NC(=O)[C@H](CCCCNC(=O)CC[C@H](NC(=O)CC[C@H](NC(=O)CN2CCN(CC(=O)O)CCN(CC(=O)O)CCN(CC(=O)O)CC2)C(=O)N[C@@H](CCC(=O)NCCCC[C@@H]2NC(=O)[C@@H](Cc3ccccc3)NC(=O)[C@H](CC(=O)O)NC(=O)CNC(=O)[C@H](CCCNC(=N)N)NC2=O)C(=O)NCCCC[C@@H]2NC(=O)[C@@H](Cc3ccccc3)NC(=O)[C@H](CC(=O)O)NC(=O)CNC(=O)[C@H](CCCNC(=N)N)NC2=O)C(=O)NCCCC[C@@H]2NC(=O)[C@@H](Cc3ccccc3)NC(=O)[C@H](CC(=O)O)NC(=O)CNC(=O)[C@H](CCCNC(=N)N)NC2=O)NC(=O)[C@@H](Cc2ccccc2)NC(=O)[C@H](CC(=O)O)NC(=O)CNC1=O [indium-111 labelled]	female athymic nu/nu mice, intestine	intravenous, 4 h	9.19 ± 1.58 %ID/g
CCCC[C@H](NC(=O)CCCCCCCNC(=O)CN1CCN(CC(=O)O)CCN(CC(=O)O)CC1)C(=O)N[C@H]1CC(=O)NCCCC[C@@H](C(N)=O)NC(=O)[C@H](Cc2c[nH]c3ccccc23)NC(=O)[C@H](CCCNC(=N)N)NC(=O)[C@@H](Cc2ccccc2)NC(=O)[C@H](Cc2c[nH]cn2)NC1=O [copper-64 labelled]	C57 mice, bone	intravenous, 0.37 MBq, 0.5 h	1.23 ± 0.34 %ID/g
N=C(N)NCCC[C@@H]1NC(=O)[C@H](CCCCNC(=O)CNC(=O)CNC(=O)CNC(=O)CC[C@H](NC(=O)CNC(=O)CNC(=O)CNC(=O)CN2CCN(CC(=O)O)CCN(CC(=O)O)CCN(CC(=O)O)CC2)C(=O)NCC(=O)NCC(=O)NCC(=O)NCCCC[C@@H]2NC(=O)[C@@H](Cc3ccccc3)NC(=O)[C@H](CC(=O)O)NC(=O)CNC(=O)[C@H](CCCNC(=N)N)NC2=O)NC(=O)[C@@H](Cc2ccccc2)NC(=O)[C@H](CC(=O)O)NC(=O)CNC1=O [indium-111 labelled]	female athymic nu/nu mice, tumor	intravenous, 1 h	8 to 15 %ID/g
CCCC[C@H](NC(=O)CNC(=O)CNC(=O)CN1CCN(CC(=O)O)CCN(CC(=O)O)CC1)C(=O)N[C@H]1CC(=O)NCCCC[C@@H](C(N)=O)NC(=O)[C@H](Cc2c[nH]c3ccccc23)NC(=O)[C@H](CCCNC(=N)N)NC(=O)[C@@H](Cc2ccccc2)NC(=O)[C@H](Cc2c[nH]cn2)NC1=O [technetium-99m labelled]	C57 mouse, skin	iv, 0.037 MBq, 0.5 h	1.89 ± 0.44 %ID/g
CC(C)C[C@H](NC(=O)[C@H](Cc1ccc(O)cc1)NC(=O)[C@@H](CCCNC(=N)N)NC(=O)[C@@H](CO)NC(=O)[C@H](Cc1ccccc1)NC(=O)[C@H](CC1CCCCC1)NC(=O)[C@H](CC(=O)O)NC(=O)CN1CCCN2CCN(CCCN(CC(=O)O)CC2)CC1)C(=O)N[C@@H](Cc1c[nH]c2ccccc12)C(=O)N[C@@H](CO)C(=O)O [copper-64 labelled]	female NMRI nude mice, intestine	1 h p.i.	4.3 ± 1.1 %ID/g

Some of these lines once more:
SMILES	system	conditions	tissue uptake
N=C(N)NCCC[C@@H]1NC(=O)[C@H](CCCCNC(=O)CC[C@H](NC(=O)CC[C@H](NC(=O)CN2CCN(CC(=O)O)CCN(CC(=O)O)CCN(CC(=O)O)CC2)C(=O)N[C@@H](CCC(=O)NCCCC[C@@H]2NC(=O)[C@@H](Cc3ccccc3)NC(=O)[C@H](CC(=O)O)NC(=O)CNC(=O)[C@H](CCCNC(=N)N)NC2=O)C(=O)NCCCC[C@@H]2NC(=O)[C@@H](Cc3ccccc3)NC(=O)[C@H](CC(=O)O)NC(=O)CNC(=O)[C@H](CCCNC(=N)N)NC2=O)C(=O)NCCCC[C@@H]2NC(=O)[C@@H](Cc3ccccc3)NC(=O)[C@H](CC(=O)O)NC(=O)CNC(=O)[C@H](CCCNC(=N)N)NC2=O)NC(=O)[C@@H](Cc2ccccc2)NC(=O)[C@H](CC(=O)O)NC(=O)CNC1=O [indium-111 labelled]	female athymic nu/nu mice, intestine	intravenous, 4 h	9.19 ± 1.58 %ID/g
